Published values pooled from the literature.
Parts stem from different laboratories: compare values within a part only. Positions count from the first letter of the parent shown.

Block 1
Target: UDP-N-acetylglucosamine--peptide N-acetylglucosaminyltransferase 110 kDa subunit (OGT, Homo sapiens, UniProt O15294)
Observed: binding
Method: phage display NGS
Form: peptide
Notes: panning round 2
Relative to: input library
Quantity: minimum log2 enrichment ratio
Residues (O15294 1-1046): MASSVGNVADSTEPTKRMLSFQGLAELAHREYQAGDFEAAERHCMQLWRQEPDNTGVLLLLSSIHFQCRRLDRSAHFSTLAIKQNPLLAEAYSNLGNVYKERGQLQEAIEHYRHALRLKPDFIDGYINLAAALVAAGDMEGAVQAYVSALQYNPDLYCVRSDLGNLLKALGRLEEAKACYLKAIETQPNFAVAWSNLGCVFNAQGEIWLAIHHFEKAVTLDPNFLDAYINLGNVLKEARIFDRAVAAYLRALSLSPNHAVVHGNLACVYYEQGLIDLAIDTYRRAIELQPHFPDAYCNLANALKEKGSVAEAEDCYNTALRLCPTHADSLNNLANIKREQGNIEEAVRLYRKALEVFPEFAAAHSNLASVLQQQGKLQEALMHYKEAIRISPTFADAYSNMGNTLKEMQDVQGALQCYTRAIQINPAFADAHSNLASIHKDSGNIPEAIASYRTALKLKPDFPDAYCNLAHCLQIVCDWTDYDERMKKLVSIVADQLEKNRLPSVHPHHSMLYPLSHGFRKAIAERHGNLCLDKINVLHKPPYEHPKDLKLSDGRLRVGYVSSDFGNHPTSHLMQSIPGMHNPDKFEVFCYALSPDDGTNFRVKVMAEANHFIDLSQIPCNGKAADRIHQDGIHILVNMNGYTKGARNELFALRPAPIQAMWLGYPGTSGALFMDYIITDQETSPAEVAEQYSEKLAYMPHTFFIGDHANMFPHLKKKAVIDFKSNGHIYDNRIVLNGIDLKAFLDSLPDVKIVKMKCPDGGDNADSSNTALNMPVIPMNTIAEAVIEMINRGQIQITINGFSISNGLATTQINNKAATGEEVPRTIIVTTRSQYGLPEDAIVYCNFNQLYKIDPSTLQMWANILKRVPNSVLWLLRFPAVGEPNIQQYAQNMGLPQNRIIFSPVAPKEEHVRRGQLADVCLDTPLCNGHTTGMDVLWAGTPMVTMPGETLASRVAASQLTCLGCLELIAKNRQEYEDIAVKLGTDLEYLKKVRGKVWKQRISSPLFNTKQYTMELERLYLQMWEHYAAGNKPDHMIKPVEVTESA
Molecule = GPMQMFQPYYQIDYA; result = 3.18
Molecule = HWFHHTEGWLPQHSR; result = 2.02
Molecule = YEPMYLPQYQMIWNK; result = 4.91

Block 2
Target: RNA binding protein fox-1 homolog 2, RRM domain, GST-SBP tag (RBFOX2, Homo sapiens, UniProt O43251-10, residues 100-194)
Method: RNA Bind-n-Seq
Form: RNA
Medium: in vitro
Concentration: 365 nM
Notes: natural RNA segment, single round, ends assumed
Relative to: no-protein control
Reading: higher = stronger binding
Quantity: RBNS enrichment (R)
Constant ends, left off below: GGGAGUUCUACAGUCCGACGAUC … UGGAAUUCUCGGGUGCCAA
Target sequence (chain): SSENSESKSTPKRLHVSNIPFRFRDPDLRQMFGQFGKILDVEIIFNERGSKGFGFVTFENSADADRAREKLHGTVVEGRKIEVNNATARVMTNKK
Strand = CCUCAGGAUGGGGAAUAGCCAAGAAUGGCAGCCUCAGCGCAGAGGCAAGGUCAGAAAGAGACGGCGCUUCAGAGUUUCCUUUCCAGACACCCCUCCCCGCACUGUGAAGU; result = 0.446
Strand = GACGGGAAGAGGAGGCCUCUGGACCUGCUGGUCUGCACUGACAGCCUGAAGGGUCUACACCCUCGGCUCACCUAAGUGCCCUGUGCUGGUUGCCAGGCGCAGAGGGGAGG; result = 0.386
Strand = GCUGCCACCACCCUCCUGUCUGCCUCUUCAAAGUCUCCUGUGACAUUUUUUCUUUGGUCAGAAGCCAGGAACUGGUGUCAUUCCUUAAAAGAUACGUGCCGGGGCCAGGU; result = 0.397
Strand = AGCAAGAGUUGAGGUGAAGCAACUAAAGCACCGUAUAAGCCAGCAAGGCGCACAGAGCUGCUCCUGCCUAUGUGAUCUUUAAGUAGACCAGGAGCCAGGAAACCACUUUA; result = 0.875
Strand = GGAGACUGUCUGGUGUCAUGACUGAAUCGCCACCUCUCUGGAAGGUGUACCGUCCUCAGGAAGCCAGAAGGUUUUGUUUUGUUUUUUUCUAUGGUUCUCAUUUUCACCCU; result = 1.12
Strand = GCCACCAUCCCCUAGAAGUCCUGUCCUCUUCACCCUGCCCUACCUGAGCCGCUGACUCUUCUGGCAAAAAUUCUGUUGGGAUUUAAGGCCAAGGGUCAGUGGGUGGCAGG; result = 0.331
Strand = AAGCAUUGCCAUUGAAGGCUUAAUUGACUGAAAUUACUUUAACAUUUUGGAAAUUGUUGUAUAUCACUAAAAGCAUGAAUUGGAACUGCAAUGAAAGUCAAAUUUACUUU; result = 2.48
Strand = CCUGCAGCCCUUCUGCGCCCUGAGGGCUCUGCCAUCACCCACAGACCAGGCAAUCCUGGCCUGGUACCUGCGCCCAGCACCAACAGAUGGGCAGAAUGGACGGGGUGGGC; result = 0.453

Block 3
Target: CCND3, cyclin fold, Cln2 fusion (human)
Method: yeast growth competition, sequencing
Medium: yeast
Notes: weak parent motif
Relative to: not given
Reading: higher = stronger binding
Quantity: normalised enrichment score
Starting sequence: viral docking peptide; TSVRRALFTGGSD
Substitution = TAVRRALFTGGSD [S2A]; result = 0.199
Substitution = TSTRRALFTGGSD [V3T]; result = 0.0449
Substitution = TKVRRALFTGGSD [S2K]; result = 0.143
Substitution = TSVFRALFTGGSD [R4F]; result = -0.227
Substitution = TSVRRALFSGGSD [T9S]; result = 0.114
Substitution = TSVRRALFTGGDD [S12D]; result = 0.183
Substitution = TSVRRANFTGGSD [L7N]; result = 0.441
Substitution = TSCRRALFTGGSD [V3C]; result = 0.211
Substitution = TSVRRALFTGGVD [S12V]; result = -0.0922
Substitution = TMVRRALFTGGSD [S2M]; result = 0.421
Substitution = TSVRRALFTGGYD [S12Y]; result = 0.31
Substitution = TSVRAAAFTGGSD [R5A L7A]; result = 0.0478
Substitution = TSVRSALFTGGSD [R5S]; result = 0.0698
Substitution = TSVRRVLFTGGSD [A6V]; result = 0.25
Substitution = TSVRRALFEGGSD [T9E]; result = 0.13

Block 4
Target: Hepatocyte nuclear factor 3-alpha (Foxa1, Mus musculus, UniProt P35582, residues 1-468, full length assumed)
Sequence of UniProt P35582 (whole entry, looked up): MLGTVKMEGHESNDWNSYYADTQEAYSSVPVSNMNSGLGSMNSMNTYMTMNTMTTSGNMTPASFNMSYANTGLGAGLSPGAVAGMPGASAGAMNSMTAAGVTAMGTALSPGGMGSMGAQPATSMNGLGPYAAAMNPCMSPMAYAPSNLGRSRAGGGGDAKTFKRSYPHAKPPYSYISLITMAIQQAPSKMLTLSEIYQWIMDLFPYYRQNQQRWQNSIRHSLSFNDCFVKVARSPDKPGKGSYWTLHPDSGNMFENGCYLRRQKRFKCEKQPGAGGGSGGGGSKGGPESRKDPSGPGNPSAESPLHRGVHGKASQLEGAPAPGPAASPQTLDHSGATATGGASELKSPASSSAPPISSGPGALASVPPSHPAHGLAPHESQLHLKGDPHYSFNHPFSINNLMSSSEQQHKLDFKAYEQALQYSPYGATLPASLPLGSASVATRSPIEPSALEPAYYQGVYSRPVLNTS
Method: EMSA with sequencing
Form: double-stranded DNA, one strand shown
Medium: in vitro
Concentration: 10 and 20 nM
Notes: whole designed probe, mean of two concentrations, ends assumed
Relative to: negative control set to 0
Reading: higher = stronger binding
Quantity: normalised bound fraction
Constant ends, left off below: GTGAGCGGTGCCCATTGATGGGGAAC … TTTCACTGGGATCGTGGGGAC
Strand = TCCTTCTCTCCAGCTCCACCTGGTCCTGGGAAGAGGGACTGCCACACCGGATGGACTGAGGTCTGAAGCCAGCTCCTGCCACTTGTGCTCTGTGTCAATAAGGCATCTCCCTCTCTGGCTTCCAGTTCCTCCTCTATGAGTAGGTAATGGGGTTACGCTCCATTTCTTGTGGGGAAATGTGAAGCTCGTATGA; result = 0.263 ratio
Strand = ATCCACGAACCTGGCCCTGTCTGGTAACCACAGTGAACCATCGCAAGATACAGCACTATGTGCCCATAATGACTCACGTTGGGCTGGAACCAGTGTTGACACATCACATCCTCAGGGACACGGAAGTGTACTTGTTTTTGGAGAGGGACTAGACCTTCATCCTTGAGGTGAAGAAGATTTTCTCTCCAGGGTG; result = 0.105 ratio
Strand = TCGGCCAGCCTGGCTTCTGCGCCCCGCCAGGAGGTCGCGGAGCGGAGCGCGGCCAGGAAGTGAGCTGAGAGTGACAGCTCCCCCCACGCGAGAATAAACAAACATCCACACACTGGCTCTTCTTATGACTCATTCTCTTTCGGGAGGAGGGGAGAAAGGAGCGGGAGGGCGGGCGGGCAGGGGAGAGGCAGGC; result = 0.373 ratio
Strand = ATAATCATTAACTATGGGCTTTTTAAAAAGAATTTTTTCTTTACTTTGCTATTCTTTTCTTTTCTTTCTCATTCTTTTCTTTCCATTTTCAAAGTCAATAAAAGGACCAAGAGAAAATTTCCCATGAAAAATACATGTTTTTATTCTTTAGTTCAATTCTGCTCCTAAAATGTATAAAAGCCAATAGGATTCA; result = 0.107 ratio
Strand = AAAAATGCTCATCTCTGAATGGTGGGATTATTGTTTCTATATTCTTCTTATACATGCCTGTATTTTTTTAAACAATGAATGTTTATTACTCTGTGTTTACAAAAAAGGGAGAGTTTAAAGCCCCTTACCCCAAAGTGAGGCAGGAATCAAGTCAGGGGCTTAAAGTGGCGAGCCCTGGGCTCTTTCCTGGGCT; result = 0.118 ratio
Strand = AATGTTTACACTTTTAAAAACTACTCTTTGATTTAAAAAATTAACTCTAAATGTATGAAAGTCTATTTTGAGTATTCAGAGCAGGTTACGGGCATGTTTACATAGTTCTGGGTACAGGGATAATTTAAGAATCAGATTTTTCTGTCATATATAACAATTTTTGAAACCTGCAAATCTGCGTGAGTTACAAGAT; result = 0.423 ratio
Strand = AAATTGGTAATGACCATATTATCTGCTGGAAGCTTGGGAAGGAAAAGGGAAGTTGATTTGCTGATTTCTTACAATGAGTCAGTGATGTTATTAAAATTACATATGACTAATTTAATTCTCAAAAATGCTGAGAAAATTAGACATTATCTTCATTTAACAGATGGGGAATATGATATGCAGTTACTAATGGCAG; result = -0.0417 ratio
Strand = ATCTTCCCCCTCTTCCTTGCCCCACCAGCTCACCTTCCCGGGTCAAAGTAAACAAGTGTTTACTTTGAAGCCGGCATTCGTTAACCCTCTTCACGCGCATACTGCTGTTTACTTTGGATGAATCATGGTCCTTTGGCGACGCCAGGCTCCGGGAGAGCAAAGCACCGTGTCAGGGCCATGATCCGGGGTGGCC; result = 0.516 ratio

A few entries again (block 4):
Strand = TCCTTCTCTCCAGCTCCACCTGGTCCTGGGAAGAGGGACTGCCACACCGGATGGACTGAGGTCTGAAGCCAGCTCCTGCCACTTGTGCTCTGTGTCAATAAGGCATCTCCCTCTCTGGCTTCCAGTTCCTCCTCTATGAGTAGGTAATGGGGTTACGCTCCATTTCTTGTGGGGAAATGTGAAGCTCGTATGA; result = 0.263 ratio
Strand = ATCCACGAACCTGGCCCTGTCTGGTAACCACAGTGAACCATCGCAAGATACAGCACTATGTGCCCATAATGACTCACGTTGGGCTGGAACCAGTGTTGACACATCACATCCTCAGGGACACGGAAGTGTACTTGTTTTTGGAGAGGGACTAGACCTTCATCCTTGAGGTGAAGAAGATTTTCTCTCCAGGGTG; result = 0.105 ratio
Strand = AAAAATGCTCATCTCTGAATGGTGGGATTATTGTTTCTATATTCTTCTTATACATGCCTGTATTTTTTTAAACAATGAATGTTTATTACTCTGTGTTTACAAAAAAGGGAGAGTTTAAAGCCCCTTACCCCAAAGTGAGGCAGGAATCAAGTCAGGGGCTTAAAGTGGCGAGCCCTGGGCTCTTTCCTGGGCT; result = 0.118 ratio
